Measurements collected from several papers.
Every numbered part comes from another study and shows a few of its results, in no order.

Sample 1
Target: Histone acetyltransferase KAT6A, both winged helices, GST fusion (KAT6A, Homo sapiens, UniProt Q92794, residues 1-181)
Technique: protein binding microarray
Molecule type: double-stranded DNA, one strand shown
Sample: in vitro
Concentration: not given
Setting: 8-mer, flanks averaged, mean of 2 arrays, mostly near background
Reference: not given
Reading: higher = stronger binding
Target sequence (chain): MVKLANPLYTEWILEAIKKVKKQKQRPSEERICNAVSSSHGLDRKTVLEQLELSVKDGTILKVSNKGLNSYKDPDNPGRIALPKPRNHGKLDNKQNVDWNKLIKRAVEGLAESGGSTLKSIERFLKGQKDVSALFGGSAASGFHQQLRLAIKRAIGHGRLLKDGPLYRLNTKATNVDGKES
The E-score of `CATGTCAG` is reported as -0.134.
The E-score of `GATGAATA` is reported as -0.0674.
`GAGGTGCA` gave an E-score of -0.0557.
`AGCTCCAA` has an E-score of -0.231.
`GAAGCGCA` has an E-score of 0.275.

Sample 2
Target: RNA binding protein fox-1 homolog 2, RRM domain, GST-SBP tag (RBFOX2, Homo sapiens, UniProt O43251-10, residues 100-194)
Technique: RNA Bind-n-Seq
Molecule type: RNA
Sample: in vitro
Concentration: 365 nM
Setting: natural RNA segment, single round, ends assumed
Reference: no-protein control
Reading: higher = stronger binding
Construct (chain): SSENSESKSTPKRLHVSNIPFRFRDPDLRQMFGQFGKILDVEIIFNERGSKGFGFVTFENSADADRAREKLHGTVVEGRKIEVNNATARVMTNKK
`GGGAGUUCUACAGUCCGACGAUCCUUACUCCAGCCUGGCAGCCUGGCCGACCCUACCCCAAGCCUCUCAACAGAAGCUGUGCAGCCAGGGCAGGCCCAGGCCAGCCAGUACCUGAGAGUAGGAAGGCCAGGCCUGGAAUUCUCGGGUGCCAA`: “RBNS enrichment (R)” 0.232.
`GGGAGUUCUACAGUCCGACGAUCUACAGGUGUGAGCCACCGCACCCGGCUCUAUUUAGCUUUUUAAAAAUUAUUUCCUUUCAAGGGCCCUUUAAUAUCUAUCAAGCUCCCUCCCCUAACAAAAUGGGCUGUCCUGGAAUUCUCGGGUGCCAA` — result for “RBNS enrichment (R)”: 0.506.
`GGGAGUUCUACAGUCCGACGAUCUGUUAGAUUCAACACUGCGCUAAAGCGGGGAUGUUCCAUUGAAUAAAAGAGCAGUGUGGUUUUCUGGUCUGCUUCUUUAUUUUCUUUUUAAUGCCUGCCCCGCCCGGUUUUGGAAUUCUCGGGUGCCAA`: “RBNS enrichment (R)” 0.353.
`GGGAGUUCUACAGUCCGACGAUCGCGUGUGCAUUUGUGAACACGUACAGCAUAUCUAUACAAAAUUCUGCUAUAGUGUGAAAAUCAGGGCUAAAAACCUGAAGCCUUUGUUUAAUUAUGCUUUUCCUCUAAAUUGGAAUUCUCGGGUGCCAA`: “RBNS enrichment (R)” 0.385.
`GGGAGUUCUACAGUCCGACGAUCUAUCUAGAAGACCCUCCAAAAAAGGAACCACAUAAGCACACAAGAAAAGAGUGCUAUGAUGUUCUUAGCAUUUGCUAUCAUGCCUAUUUUUAUCUAGAUUUUUAAAUGUAUGGAAUUCUCGGGUGCCAA` — result for “RBNS enrichment (R)”: 0.58.

Sample 3
Target: Sal-like protein 4, full length isoform B (SALL4, Homo sapiens, UniProt Q9UJQ4-2, residues 1-616)
Technique: universal PBM
Molecule type: double-stranded DNA, one strand shown
Sample: in vitro
Concentration: not given
Setting: 8-mer, flanks averaged, mean of replicates
Reading: higher = stronger binding
`ACTTCTAA` has an E-score of 0.00657.
`CTATCTTA` has an E-score of 0.136.
`AAAAATCC` gave an E-score of 0.116.
The E-score of `CAGATGAA` is reported as 0.0843.
For `GTGTGCCA`, the E-score was -0.171.
`ATAGTGAA` has an E-score of 0.208.

Mixed results
For `PhoQ, residues 284 288 289 292 302 303 SNSSNI`, the fold induction was 5.18 (PhoP, residues 12 14 15 18 19 LWHVM (Escherichia coli, UniProt P23836); Sort-seq, item: YFP reporter; E. coli; PhoQ-PhoP variant library, together with: 10 µM Mg2+; reference: high Mg2+ state, higher = stronger signaling).

Some of these lines once more (sample 3):
`AAAAATCC` gave an E-score of 0.116.
